Assay results pooled from the literature.
Numbered parts are unrelated; each lists some results of a single study.

Series 1
Target: TAR DNA-binding protein 43, full length, His tag (TARDBP, Homo sapiens, UniProt Q13148, residues 1-414)
Technique: RNA Bind-n-Seq
Molecule type: RNA
Matrix: in vitro
Concentration: 20 nM
Setting: 6-mer, flanks averaged, single round
Together with: 150 mM KCl
Baseline: input library
Direction: higher = stronger binding
Measurement: 6-mer enrichment (R)
GUGAAA: 1.01
GCGAUG: 1.41
UGGUGA: 1.37
ACGUUG: 0.75
UUCACG: 0.621
AGCUAA: 0.634
AUUAAC: 0.582
AGAAAC: 0.662

Series 2
Target: GDNF-inducible zinc finger protein 1, full length (GZF1, Homo sapiens, UniProt Q9H116, residues 1-711)
Sequence of UniProt Q9H116 (whole entry, looked up): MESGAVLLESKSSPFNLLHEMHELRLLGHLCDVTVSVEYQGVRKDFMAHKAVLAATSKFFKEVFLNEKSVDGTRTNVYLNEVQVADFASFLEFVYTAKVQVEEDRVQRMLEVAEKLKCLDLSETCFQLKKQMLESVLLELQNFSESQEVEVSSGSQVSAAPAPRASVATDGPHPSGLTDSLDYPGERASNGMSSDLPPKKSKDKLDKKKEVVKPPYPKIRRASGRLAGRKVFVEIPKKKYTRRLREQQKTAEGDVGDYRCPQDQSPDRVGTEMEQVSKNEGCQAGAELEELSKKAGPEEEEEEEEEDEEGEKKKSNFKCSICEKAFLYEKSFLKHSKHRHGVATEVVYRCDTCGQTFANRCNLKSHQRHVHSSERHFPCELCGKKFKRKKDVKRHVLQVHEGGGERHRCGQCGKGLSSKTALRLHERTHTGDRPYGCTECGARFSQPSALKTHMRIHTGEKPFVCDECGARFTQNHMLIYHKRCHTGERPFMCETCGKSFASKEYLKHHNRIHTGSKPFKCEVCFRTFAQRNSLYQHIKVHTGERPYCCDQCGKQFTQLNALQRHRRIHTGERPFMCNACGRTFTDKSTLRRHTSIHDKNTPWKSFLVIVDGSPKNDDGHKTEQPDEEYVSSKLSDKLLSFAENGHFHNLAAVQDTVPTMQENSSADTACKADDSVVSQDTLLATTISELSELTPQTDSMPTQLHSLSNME
Technique: protein-binding microarray
Molecule type: hairpin DNA
Matrix: in vitro
Concentration: not given
Setting: whole hairpin DNA, median over replicate spots
Baseline: not given
Direction: higher = stronger binding
Measurement: median fluorescence
Shared flanks, not repeated: GAGGCCAT … ATGGCCTCACACTC
TACGGTAGTGCCTCCTGGCACTACCGTA (5mC at 29): 735 a.u.
TGCGGTAATGCCTCCTGGCATTACCGCA (5mC at 35): 623 a.u.
TACGGTACGGCCTCCTGGCCGTACCGTA: 642 a.u.
TACGGTACGGCCTCCTGGCCGTACCGTA (5mC at 16): 611 a.u.
CGCGGTAATGCCTCCTGGCATTACCGCG (5mC at 9): 713 a.u.
TCCGGTAATGCCTCCTGGCATTACCGGA: 591 a.u.
CGCGGTAATGCCTCCTGGCATTACCGCG (5mC at 35): 730 a.u.
TCGGGTAATGCCTCCTGGCATTACCCGA: 498 a.u.

Series 3
Target: RNA binding protein fox-1 homolog 2, RRM domain, GST-SBP tag (RBFOX2, Homo sapiens, UniProt O43251-10, residues 100-194)
Technique: RNA Bind-n-Seq
Molecule type: RNA
Matrix: in vitro
Concentration: 365 nM
Setting: natural RNA segment, single round, ends assumed
Baseline: no-protein control
Direction: higher = stronger binding
Measurement: RBNS enrichment (R)
Shared flanks, not repeated: GGGAGUUCUACAGUCCGACGAUC … UGGAAUUCUCGGGUGCCAA
Target sequence (chain): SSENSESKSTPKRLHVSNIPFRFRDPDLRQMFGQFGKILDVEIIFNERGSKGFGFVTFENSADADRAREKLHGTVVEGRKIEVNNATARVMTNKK
GCAGGCCUUUGCGUUUUUAUCCUUCAUAACCUUCAUCUUAAUUUGAACUUGUAGCUUGGACUUUAAGGUAGCAUGGCUCUAUUGCUGUCAAUUUACUGUUUCACUGCACA: 0.612
AAAAAUACAAGCCAGGAUUCUGCUCCCAAACCUUCAGGACAAUGGGUAGUCCCCAUGGGACCUUAAAAGACCCAUAGCUGAGUAGUCUCCCUUGUCUACCCUGCUUUAAG: 0.38
UAAAGCAGCUAAACACUGAGCUUCCCUCGGGGUUAGGACAGUGGCUUCUUAGCCUCUUUGUUUAGGGGCCACUGGAGAAUUCCACUUAGGGAGACUGGAUAUAGUAGUGC: 0.328
AGCCAAGAGAAUCAGAGAAAGAUGCUGCAUUUUAUAUCAAAGCCCAAACUCCUUUCUUAUCUUGACCAUACUAAUAAAUAUAAUUUAUAAGCAUUGCCAUUGAAGGCUUA: 0.499
UGCUUUGCCUUCACCACCGCUAGUCUGUUUGGAAGGCUUGAGGUGGGGUGUCUUGGGAAAUUAGGGCCACUACCCAAGAUUUGAAUUUAGGGAGUGGGAGCAGCCUCAGC: 0.532
AAGAAUAAAAGAAUUCUUUUAAUUUCAGGGAAGAUCAGAAAAGAAAGCCUAAAGCCCUUUAGCGUUGUGAACCUCAGUAGUAGCUGAAAGAGAAGCUGCCACAGGUUGUA: 0.568
GAGGGGUUCUAAUGGAAUGGAUGGGGAUGUCCACACACGCAUUCAGAUGGCUGUACAACAGGUUGUAGGGCUGGUAGUAUGAGGUGCUUGGGAAGUUUUGUUGGGUCAAG: 1.79
ACCUGAAAAUGCAACAGAAAGGGAGCGUGGGUACGAGGGCCUGGUUUCUACUGUGUGUAAAUGGGAGUCGCUCUCAUUAGUCCCAUUGCACUGACAUCCAGCACCUGGAC: 2.51

Single results of other studies
HYNAFHWAI  binding (HLA class I histocompatibility antigen, C alpha chain, allele C*04:01 (Homo sapiens, UniProt P10321); peptide-MHC binding; peptide; concentration not given): inactive

A few entries again (series 1):
ACGUUG: 0.75
